# Results of several laboratories.
# Parts stem from different laboratories: compare values within a part only. Several values in a cell are separate wells, animals, samples, runs or records. pIC50: −log10 of the molar value.
# UniProt P35372, sequence (whole entry, looked up): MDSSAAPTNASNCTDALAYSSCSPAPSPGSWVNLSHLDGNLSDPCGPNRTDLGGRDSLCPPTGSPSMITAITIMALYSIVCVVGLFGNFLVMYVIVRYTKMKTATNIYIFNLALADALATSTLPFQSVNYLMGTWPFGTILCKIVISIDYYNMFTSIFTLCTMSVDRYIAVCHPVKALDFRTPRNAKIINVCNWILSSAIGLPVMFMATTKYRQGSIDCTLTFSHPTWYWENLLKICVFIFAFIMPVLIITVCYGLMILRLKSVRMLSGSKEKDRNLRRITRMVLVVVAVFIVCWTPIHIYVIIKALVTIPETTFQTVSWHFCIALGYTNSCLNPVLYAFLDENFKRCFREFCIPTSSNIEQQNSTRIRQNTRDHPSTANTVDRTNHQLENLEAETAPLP

# Block 1
# SMILES: Cn1cc(-c2cccc(CN3CCC4(CC3)COc3c4ccc4c3CN([C@H]3CCC(=O)NC3=O)C4=O)c2)cn1
# Time: 5 h
system,plasma protein binding [%]
human plasma,91.5
rat plasma,91.2
mouse plasma,93.4
monkey plasma,94.3

# Further values, each from its own experiment
SMILES,target or system,assay,system,conditions,measurement,result
O=[N+]([O-])c1ccc(C2=NOC3(NC(c4ccccc4)=NO3)N2c2ccccc2)cc1 (centres unmarked),Plasmodium falciparum,parasite growth,DD2,"72 h, drug-resistant strain, blood stage",pIC50,4.90
CCCCC[C@@H](O)CC(=O)N[C@@H]1C(=O)N[C@H](CCCNC(=N)N)C(=O)N[C@@H](CO)C(=O)NCC(=O)N(C)[C@H](Cc2ccccc2)C(=O)N[C@@H](CC(C)C)C(=O)N[C@H](CCCNC(=N)N)C(=O)N[C@@H](CCC(=O)O)C(=O)N[C@H](CCC(N)=O)C(=O)N[C@H](Cc2c[nH]c3ccccc23)C(=O)N[C@@H]([C@@H](C)CC)C(=O)N[C@@H]([C@@H](C)O)C(=O)O[C@@H]1C,Staphylococcus aureus,,USA300,"2 x MIC, 15 min",viable cells,5000 CFU/mL and 4500 CFU/mL and 5500 CFU/mL
C#CCN1C(=O)C(O)(C(=O)O)Oc2cc(F)ccc21 (centres unmarked),Arabidopsis thaliana,,shoots,"foliar spray, 200 µg/mL, 20 days",fresh weight,367 mg
N=C(N)NCCCCCCN1CCC23c4c5ccc(O)c4OC2c2nc4ccccc4cc2CC3(O)C1C5 (centres unmarked),"Mu-type opioid receptor (OPRM1, Homo sapiens, UniProt P35372)","competitor, radioligand binding",,1 µM,normalised specific binding,12.6% and 19.3% and 25.5%

# Repeated from above (block 1):
system,plasma protein binding [%]
human plasma,91.5
